Assay results collected from several papers.
Every numbered part comes from another study and shows a few of its results, in no order.
Sequence of UniProt P15056 (whole entry, unmodified, looked up): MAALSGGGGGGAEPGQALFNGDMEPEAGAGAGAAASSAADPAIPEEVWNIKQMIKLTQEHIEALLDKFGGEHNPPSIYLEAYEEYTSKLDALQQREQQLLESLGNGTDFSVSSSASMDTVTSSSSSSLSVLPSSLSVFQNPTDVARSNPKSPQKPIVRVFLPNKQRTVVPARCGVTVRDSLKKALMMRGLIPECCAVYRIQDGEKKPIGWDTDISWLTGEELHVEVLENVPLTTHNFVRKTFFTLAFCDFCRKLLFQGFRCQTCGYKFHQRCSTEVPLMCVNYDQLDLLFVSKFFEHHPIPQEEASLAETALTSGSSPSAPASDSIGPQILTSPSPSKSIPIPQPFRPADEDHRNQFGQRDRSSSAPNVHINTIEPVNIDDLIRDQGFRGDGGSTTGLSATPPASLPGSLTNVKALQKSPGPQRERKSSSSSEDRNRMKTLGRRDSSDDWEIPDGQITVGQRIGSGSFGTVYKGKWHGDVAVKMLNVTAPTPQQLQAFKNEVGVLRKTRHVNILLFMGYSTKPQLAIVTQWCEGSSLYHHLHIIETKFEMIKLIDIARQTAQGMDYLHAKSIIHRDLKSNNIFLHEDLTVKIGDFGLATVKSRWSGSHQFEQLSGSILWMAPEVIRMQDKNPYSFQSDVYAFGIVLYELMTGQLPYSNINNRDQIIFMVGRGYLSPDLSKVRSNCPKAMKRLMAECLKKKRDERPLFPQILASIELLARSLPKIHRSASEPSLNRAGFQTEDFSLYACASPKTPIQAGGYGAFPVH
Sequence of UniProt P23443 (whole entry, looked up): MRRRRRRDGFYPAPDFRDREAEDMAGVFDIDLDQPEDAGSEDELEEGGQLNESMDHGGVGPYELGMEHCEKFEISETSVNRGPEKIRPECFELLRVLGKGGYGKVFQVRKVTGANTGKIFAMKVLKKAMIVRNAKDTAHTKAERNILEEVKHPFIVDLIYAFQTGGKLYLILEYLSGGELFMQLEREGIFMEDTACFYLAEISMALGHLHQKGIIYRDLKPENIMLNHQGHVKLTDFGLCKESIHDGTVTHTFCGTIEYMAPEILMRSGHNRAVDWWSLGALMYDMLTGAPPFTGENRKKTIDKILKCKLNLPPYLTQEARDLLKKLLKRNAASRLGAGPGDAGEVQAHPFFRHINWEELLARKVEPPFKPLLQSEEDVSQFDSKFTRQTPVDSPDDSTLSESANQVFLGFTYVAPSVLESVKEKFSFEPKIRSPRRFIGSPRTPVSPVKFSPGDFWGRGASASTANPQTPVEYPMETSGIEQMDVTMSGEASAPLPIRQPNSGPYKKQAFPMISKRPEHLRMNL
Sequence of UniProt Q15375 (whole entry, looked up): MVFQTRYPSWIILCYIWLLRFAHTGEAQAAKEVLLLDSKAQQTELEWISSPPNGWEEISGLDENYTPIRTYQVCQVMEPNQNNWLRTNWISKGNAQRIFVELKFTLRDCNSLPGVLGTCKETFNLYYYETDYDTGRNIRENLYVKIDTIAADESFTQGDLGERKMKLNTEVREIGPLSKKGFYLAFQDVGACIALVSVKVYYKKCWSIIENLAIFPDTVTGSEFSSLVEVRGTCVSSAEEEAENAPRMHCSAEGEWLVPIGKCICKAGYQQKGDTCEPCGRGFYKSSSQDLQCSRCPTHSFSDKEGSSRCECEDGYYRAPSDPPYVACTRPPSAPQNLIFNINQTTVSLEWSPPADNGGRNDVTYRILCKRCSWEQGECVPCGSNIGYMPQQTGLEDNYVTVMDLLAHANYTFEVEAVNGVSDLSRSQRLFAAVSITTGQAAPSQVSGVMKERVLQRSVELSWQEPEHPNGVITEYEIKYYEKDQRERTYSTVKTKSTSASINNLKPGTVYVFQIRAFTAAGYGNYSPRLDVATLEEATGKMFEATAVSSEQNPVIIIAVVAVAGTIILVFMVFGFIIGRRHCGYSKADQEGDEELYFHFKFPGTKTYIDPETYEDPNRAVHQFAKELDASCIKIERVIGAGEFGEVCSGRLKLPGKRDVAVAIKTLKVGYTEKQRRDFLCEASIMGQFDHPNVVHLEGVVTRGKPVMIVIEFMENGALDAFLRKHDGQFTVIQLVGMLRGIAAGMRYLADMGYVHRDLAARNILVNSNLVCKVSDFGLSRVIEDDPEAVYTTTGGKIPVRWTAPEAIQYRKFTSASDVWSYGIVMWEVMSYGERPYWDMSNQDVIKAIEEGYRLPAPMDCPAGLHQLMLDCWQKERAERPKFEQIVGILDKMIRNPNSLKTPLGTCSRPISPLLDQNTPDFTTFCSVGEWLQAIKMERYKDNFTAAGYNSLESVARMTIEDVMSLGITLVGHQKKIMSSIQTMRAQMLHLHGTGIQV
Sequence of UniProt P07333 (whole entry, looked up): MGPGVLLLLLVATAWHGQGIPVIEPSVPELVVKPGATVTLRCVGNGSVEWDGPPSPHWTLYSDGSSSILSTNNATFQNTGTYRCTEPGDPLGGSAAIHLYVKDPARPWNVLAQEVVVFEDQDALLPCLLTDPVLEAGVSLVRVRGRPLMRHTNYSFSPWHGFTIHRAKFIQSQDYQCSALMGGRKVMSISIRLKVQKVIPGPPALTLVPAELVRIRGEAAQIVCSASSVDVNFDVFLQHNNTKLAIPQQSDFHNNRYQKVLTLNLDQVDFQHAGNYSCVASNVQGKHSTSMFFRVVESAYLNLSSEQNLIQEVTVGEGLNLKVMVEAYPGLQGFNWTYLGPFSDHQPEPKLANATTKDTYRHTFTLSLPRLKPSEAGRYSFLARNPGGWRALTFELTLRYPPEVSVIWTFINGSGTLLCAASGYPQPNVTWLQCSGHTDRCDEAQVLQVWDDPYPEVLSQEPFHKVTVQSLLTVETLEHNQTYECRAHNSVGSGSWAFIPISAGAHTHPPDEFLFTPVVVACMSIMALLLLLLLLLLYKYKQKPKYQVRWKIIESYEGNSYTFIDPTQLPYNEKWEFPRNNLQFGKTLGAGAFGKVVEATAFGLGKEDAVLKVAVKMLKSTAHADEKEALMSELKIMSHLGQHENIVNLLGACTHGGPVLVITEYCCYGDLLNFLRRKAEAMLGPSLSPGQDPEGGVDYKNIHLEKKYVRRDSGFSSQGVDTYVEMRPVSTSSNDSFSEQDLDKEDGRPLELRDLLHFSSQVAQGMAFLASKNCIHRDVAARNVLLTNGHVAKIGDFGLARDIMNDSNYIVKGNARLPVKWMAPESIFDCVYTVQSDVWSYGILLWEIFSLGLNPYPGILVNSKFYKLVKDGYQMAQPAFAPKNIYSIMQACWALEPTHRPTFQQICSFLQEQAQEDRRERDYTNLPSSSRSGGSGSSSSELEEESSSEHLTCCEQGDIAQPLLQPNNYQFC
Sequence of UniProt O00141 (whole entry, looked up): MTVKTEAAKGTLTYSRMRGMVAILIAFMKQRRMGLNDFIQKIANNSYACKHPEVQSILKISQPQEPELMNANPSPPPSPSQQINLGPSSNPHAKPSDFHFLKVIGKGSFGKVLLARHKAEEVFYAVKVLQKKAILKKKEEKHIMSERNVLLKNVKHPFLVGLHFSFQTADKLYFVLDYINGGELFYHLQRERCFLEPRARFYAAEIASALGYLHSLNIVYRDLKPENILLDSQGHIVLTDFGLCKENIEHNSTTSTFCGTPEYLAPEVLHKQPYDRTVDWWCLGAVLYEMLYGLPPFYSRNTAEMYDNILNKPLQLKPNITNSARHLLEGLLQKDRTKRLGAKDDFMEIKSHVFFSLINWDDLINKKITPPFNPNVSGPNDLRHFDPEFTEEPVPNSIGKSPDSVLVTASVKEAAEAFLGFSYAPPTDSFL

Set 1 — method: universal PBM; form: double-stranded DNA, one strand shown; medium: in vitro; concentration: 600 nM; direction: higher = stronger binding
Target: Sal-like protein 4, full length isoform A (SALL4, Homo sapiens, UniProt Q9UJQ4, residues 1-1053)
Sequence of UniProt Q9UJQ4 (whole entry, looked up): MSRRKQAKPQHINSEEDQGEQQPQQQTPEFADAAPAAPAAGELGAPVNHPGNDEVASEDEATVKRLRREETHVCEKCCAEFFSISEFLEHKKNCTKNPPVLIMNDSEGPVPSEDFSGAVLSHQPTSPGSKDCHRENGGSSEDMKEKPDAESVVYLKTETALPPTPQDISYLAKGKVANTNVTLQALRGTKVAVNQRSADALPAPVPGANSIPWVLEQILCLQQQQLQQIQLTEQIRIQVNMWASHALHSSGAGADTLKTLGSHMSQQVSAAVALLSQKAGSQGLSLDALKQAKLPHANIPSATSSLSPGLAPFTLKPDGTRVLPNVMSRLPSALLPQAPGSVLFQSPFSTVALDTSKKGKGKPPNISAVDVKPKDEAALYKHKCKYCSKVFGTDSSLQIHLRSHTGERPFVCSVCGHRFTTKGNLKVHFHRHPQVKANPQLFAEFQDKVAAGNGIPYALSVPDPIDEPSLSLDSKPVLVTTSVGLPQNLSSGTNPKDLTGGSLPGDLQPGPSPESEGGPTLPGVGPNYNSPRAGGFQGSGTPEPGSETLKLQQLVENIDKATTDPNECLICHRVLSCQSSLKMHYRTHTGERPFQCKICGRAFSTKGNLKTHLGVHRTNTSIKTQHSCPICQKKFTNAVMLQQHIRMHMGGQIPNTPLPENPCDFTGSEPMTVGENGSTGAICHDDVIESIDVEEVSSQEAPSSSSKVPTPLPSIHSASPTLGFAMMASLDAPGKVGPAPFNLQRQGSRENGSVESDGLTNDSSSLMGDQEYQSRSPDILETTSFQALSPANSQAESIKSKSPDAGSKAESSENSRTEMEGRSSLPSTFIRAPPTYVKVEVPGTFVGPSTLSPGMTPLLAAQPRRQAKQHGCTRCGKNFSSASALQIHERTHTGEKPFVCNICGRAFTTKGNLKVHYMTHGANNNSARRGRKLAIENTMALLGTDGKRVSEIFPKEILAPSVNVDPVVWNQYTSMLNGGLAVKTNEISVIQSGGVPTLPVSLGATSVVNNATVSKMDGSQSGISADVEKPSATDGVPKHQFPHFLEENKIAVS
Notes: 8-mer, flanks averaged, mean of replicates
Strand | E-score
AGCAGGCC | -0.292
CGGATATA | 0.187
CAGCGGTC | -0.273
AGCTAGCC | -0.242
AGCAAGGC | -0.243
AATCAATT | 0.275
AACTCTAC | -0.119
GAATGATA | 0.313

Set 2 — observed: enzyme activity; action: inhibitor; concentration: 0.5 µM; reference: control
Compound: Cc1ccc(NC(=O)c2ccc(CN3CCN(C)CC3)cc2)cc1Nc1nc(-c2cccnc2)cs1
target | remaining activity [%]
CSK (Homo sapiens, UniProt P41240) | 104
CSF1R (Homo sapiens, UniProt P07333) | 8.38
PAK2 (Homo sapiens, UniProt Q13177) | 111
GRK2 (Homo sapiens, UniProt P25098) | 121
GSK3A (Homo sapiens, UniProt P49840) | 101
GRK6 (Homo sapiens, UniProt P43250) | 104
EPHA7 (Homo sapiens, UniProt Q15375) | 99.7
NUAK1 (Homo sapiens, UniProt O60285) | 110
Aurora kinase C (AURKC, Homo sapiens, UniProt Q9UQB9) | 112
SGK1 (Homo sapiens, UniProt O00141) | 111
RPS6KB1 (Homo sapiens, UniProt P23443) | 104
RPS6KA1 (Homo sapiens, UniProt Q15418) | 97.2

Set 3 — method: competition with immobilised ligand; concentration: 1 µM
Structure (SMILES): O=C(N[C@H]1CCCCC/C=C\C2C[C@@]2(C(=O)O)NC(=O)[C@@H]2C[C@@H](Oc3ccncc3)CN2C1=O)OC1CCCC1 (some centres unmarked)
target | observed | remaining binding [%]
Mast/stem cell growth factor receptor Kit, autoinhibited (KIT, Homo sapiens, UniProt P10721) | binding | 84
BRAF (Homo sapiens, UniProt P15056, V600E) | cell-free assay | 93
BRAF (Homo sapiens, UniProt P15056) | cell-free assay | 100
MAPK15 (Homo sapiens, UniProt Q8TD08) | binding | 100

Set 4 — method: RNA Bind-n-Seq; form: RNA; medium: in vitro; concentration: not given; notes: RNA with constant flanks, ends assumed; reference: input RNA pool; direction: higher = stronger binding
Target: RING finger protein unkempt homolog, zinc fingers 1-6, GST-SBP tag (UNK, Homo sapiens, UniProt Q9C0B0, residues 30-357)
Sequence of UniProt Q9C0B0 (30-357, looked up): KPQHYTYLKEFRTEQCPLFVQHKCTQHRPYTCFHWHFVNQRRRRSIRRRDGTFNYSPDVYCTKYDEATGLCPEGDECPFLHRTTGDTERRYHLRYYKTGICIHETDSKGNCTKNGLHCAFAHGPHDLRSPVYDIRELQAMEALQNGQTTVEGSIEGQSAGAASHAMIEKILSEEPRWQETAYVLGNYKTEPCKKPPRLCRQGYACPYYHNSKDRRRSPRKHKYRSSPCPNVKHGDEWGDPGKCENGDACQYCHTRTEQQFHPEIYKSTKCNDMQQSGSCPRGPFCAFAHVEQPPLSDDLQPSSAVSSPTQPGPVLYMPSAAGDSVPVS
Strand | bound/input enrichment
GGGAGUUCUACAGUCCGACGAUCACCUCAAACCAGAAAUACCUCAGAAUUUUCUACUUAUGUAAGGUUUAUUAUAUAUUUUGUCCGUUGUGUUGUCUUGUAGUAAGUAUAUUUUAAUGUAAGUUGGCUUUUGUGACAAGGAAGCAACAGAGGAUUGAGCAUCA | 3.7 ratio
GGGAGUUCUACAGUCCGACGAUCGAUGCCCCUCUGGGAAGUUCUUAUAUGUGCAACAAAGAGCAGGUGCUUUCUGUGUCCCGAGCGUUUCAGAUCAACACCUUUAACCUAAAGGUGCAACCUUUUAAUGUGACAAAAGGACAGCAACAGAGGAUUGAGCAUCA | 0.192 ratio
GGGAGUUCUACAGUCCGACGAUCACCACUGGUGGCAUUGAUGAUAUGUAUCUCAAGUAUUUUGUGGAAGCUGGUGCCAUGGCUGUCCGGAGAGUUUUAAAACGAGACCUGAAGCAUGUUGCAAAAGCUUCUGGAGCAAGUAUCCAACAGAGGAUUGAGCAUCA | 0.114 ratio
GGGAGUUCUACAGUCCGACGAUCCCACGCUGUGGUUUCAGCAAGCAGAUGGUGGAAAUUCUUCACAAACAUAAUAUUCAGUUCCGCAGUUUUGAUAUCUUCUCAGAUGAAGAGGUUCGACAGGGACUCAAAGCCUAUUCCAGUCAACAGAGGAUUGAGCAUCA | 0.107 ratio
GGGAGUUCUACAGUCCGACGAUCAUCAGCUGGACAGAGCAGAACUAUCCUCAAGGUGGGAAGGAGAGUAAUAUGUCAACGUUAUCCGAAAGAGCUGUAGAAGCACUACAAGGAGAAAAACGAUAUUAUAGUGAUCCUCGAUUUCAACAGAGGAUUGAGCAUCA | 0.268 ratio
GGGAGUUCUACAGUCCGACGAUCCUUCAGUUACAUCCCAGGGAAGAUGCUUGCAUCCCCAAUACAAACUAUGGUGUUCUCUUAACCGAGUUUUUUGAAUUAUAUGGACGGCACUUCAAUUACUUAAAGACUGGCAUCCGGAUACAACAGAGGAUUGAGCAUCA | 0.308 ratio
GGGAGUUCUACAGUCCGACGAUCAUCAAAUACUUUGGGGACAUCAUUAGUGUGGGACAGAGACUGUUGCAAGGAGCUCGGAUCUCCGGGAUUCCAGUUAUCAUAACGGAACAAUACCCCAAAGGACUUGGCAGCACCGUUCAACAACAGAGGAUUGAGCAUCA | 0.193 ratio
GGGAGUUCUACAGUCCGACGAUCUUUCCAGAUCAAGGAUACAGAGGUCGAGGCCGAGGUGAAUAUUACUCCAGAGGUCGAAGCUACCGAGGUUCUUAUGGAGGGCGUGGCAGGGGUGGUAGGGGACACACUCGAGAUUAUCCUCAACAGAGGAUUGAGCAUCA | 0.458 ratio

For quick reference, copied from above (set 2):
target | remaining activity [%]
RPS6KA1 (Homo sapiens, UniProt Q15418) | 97.2
GRK6 (Homo sapiens, UniProt P43250) | 104
RPS6KB1 (Homo sapiens, UniProt P23443) | 104
